Assay results pooled from the literature.
Every numbered part comes from another study and shows a few of its results, in no order. “And” joins repeats or separate records; there may be more than shown.
Sequence of UniProt Q15746 (whole entry, looked up): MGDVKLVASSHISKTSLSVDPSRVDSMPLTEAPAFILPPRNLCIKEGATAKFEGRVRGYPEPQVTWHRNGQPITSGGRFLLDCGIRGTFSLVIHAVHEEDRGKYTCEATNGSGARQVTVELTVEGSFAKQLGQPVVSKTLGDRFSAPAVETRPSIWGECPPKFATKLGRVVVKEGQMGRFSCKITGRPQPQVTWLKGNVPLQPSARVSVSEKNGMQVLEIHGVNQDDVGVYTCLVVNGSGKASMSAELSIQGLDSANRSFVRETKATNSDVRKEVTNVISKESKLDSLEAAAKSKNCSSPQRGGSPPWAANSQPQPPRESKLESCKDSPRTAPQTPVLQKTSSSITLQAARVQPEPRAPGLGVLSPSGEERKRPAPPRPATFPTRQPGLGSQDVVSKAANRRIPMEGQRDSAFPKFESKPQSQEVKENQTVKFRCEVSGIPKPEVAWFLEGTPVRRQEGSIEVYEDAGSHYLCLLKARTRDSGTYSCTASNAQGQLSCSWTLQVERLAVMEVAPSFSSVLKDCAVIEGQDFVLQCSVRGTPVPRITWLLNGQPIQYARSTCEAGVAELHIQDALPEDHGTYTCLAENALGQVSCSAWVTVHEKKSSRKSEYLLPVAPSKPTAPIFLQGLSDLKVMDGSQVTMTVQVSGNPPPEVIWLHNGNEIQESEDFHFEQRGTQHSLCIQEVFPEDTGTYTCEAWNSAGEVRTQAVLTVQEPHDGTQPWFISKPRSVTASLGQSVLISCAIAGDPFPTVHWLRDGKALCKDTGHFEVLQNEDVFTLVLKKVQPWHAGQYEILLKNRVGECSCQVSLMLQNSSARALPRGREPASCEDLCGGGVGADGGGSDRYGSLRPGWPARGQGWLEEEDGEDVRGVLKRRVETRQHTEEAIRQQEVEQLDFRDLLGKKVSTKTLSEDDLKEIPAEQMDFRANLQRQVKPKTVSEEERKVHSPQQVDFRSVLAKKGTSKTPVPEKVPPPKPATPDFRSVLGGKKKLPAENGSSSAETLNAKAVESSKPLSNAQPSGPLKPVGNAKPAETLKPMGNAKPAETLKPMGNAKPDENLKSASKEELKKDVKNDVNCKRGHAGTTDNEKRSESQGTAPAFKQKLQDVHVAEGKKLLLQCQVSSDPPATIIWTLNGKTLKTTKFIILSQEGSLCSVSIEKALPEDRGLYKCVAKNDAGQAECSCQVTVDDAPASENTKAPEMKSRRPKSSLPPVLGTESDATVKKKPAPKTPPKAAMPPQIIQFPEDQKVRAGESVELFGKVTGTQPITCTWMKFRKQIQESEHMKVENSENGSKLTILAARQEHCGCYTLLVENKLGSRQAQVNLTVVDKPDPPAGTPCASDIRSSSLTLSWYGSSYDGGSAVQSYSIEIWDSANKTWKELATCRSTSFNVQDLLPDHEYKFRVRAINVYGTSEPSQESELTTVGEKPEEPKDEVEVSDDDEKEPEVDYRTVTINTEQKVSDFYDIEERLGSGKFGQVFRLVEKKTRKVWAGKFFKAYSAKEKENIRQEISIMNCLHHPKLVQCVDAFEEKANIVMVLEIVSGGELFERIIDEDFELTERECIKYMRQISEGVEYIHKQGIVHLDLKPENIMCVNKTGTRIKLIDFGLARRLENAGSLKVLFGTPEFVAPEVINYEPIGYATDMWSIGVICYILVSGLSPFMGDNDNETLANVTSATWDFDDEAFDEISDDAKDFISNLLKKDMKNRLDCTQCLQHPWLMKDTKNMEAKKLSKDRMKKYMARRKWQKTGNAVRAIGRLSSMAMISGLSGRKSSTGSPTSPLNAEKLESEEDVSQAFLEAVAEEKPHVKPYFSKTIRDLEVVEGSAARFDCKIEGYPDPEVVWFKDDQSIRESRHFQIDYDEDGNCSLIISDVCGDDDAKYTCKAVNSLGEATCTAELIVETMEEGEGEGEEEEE

Series 1 — cell line: NCI-H292; technique: CellTiter-Glo; time: 72 h; direction: higher = more viable cells
Compound: Cn1ncc2c1N(CCCCNC/C=C/C#N)c1cc(Cl)ccc1CC2.O=C(O)/C=C\C(=O)O
concentration | luminescence
50 µM | 57600 a.u. and 55900 a.u. and 46300 a.u.
0.5 µM | 4.04e+06 a.u. and 3.72e+06 a.u. and 4.1e+06 a.u.
0.005 µM | 4.2e+06 a.u. and 4.09e+06 a.u. and 4.14e+06 a.u.
5 µM | 987000 a.u. and 899000 a.u. and 971000 a.u.
0.05 µM | 4.28e+06 a.u. and 4.26e+06 a.u. and 3.8e+06 a.u.

Series 2 — technique: KINOMEscan; notes: unit not given; reference: DMSO
Compound: CCOc1ccc2nc(Sc3nc(Nc4ccc(OC)cc4)nc(N4CCOCC4)n3)sc2c1
Target: 1-phosphatidylinositol 3-phosphate 5-kinase (PIKFYVE, Homo sapiens, UniProt Q9Y2I7)
Sequence of UniProt Q9Y2I7 (whole entry, looked up): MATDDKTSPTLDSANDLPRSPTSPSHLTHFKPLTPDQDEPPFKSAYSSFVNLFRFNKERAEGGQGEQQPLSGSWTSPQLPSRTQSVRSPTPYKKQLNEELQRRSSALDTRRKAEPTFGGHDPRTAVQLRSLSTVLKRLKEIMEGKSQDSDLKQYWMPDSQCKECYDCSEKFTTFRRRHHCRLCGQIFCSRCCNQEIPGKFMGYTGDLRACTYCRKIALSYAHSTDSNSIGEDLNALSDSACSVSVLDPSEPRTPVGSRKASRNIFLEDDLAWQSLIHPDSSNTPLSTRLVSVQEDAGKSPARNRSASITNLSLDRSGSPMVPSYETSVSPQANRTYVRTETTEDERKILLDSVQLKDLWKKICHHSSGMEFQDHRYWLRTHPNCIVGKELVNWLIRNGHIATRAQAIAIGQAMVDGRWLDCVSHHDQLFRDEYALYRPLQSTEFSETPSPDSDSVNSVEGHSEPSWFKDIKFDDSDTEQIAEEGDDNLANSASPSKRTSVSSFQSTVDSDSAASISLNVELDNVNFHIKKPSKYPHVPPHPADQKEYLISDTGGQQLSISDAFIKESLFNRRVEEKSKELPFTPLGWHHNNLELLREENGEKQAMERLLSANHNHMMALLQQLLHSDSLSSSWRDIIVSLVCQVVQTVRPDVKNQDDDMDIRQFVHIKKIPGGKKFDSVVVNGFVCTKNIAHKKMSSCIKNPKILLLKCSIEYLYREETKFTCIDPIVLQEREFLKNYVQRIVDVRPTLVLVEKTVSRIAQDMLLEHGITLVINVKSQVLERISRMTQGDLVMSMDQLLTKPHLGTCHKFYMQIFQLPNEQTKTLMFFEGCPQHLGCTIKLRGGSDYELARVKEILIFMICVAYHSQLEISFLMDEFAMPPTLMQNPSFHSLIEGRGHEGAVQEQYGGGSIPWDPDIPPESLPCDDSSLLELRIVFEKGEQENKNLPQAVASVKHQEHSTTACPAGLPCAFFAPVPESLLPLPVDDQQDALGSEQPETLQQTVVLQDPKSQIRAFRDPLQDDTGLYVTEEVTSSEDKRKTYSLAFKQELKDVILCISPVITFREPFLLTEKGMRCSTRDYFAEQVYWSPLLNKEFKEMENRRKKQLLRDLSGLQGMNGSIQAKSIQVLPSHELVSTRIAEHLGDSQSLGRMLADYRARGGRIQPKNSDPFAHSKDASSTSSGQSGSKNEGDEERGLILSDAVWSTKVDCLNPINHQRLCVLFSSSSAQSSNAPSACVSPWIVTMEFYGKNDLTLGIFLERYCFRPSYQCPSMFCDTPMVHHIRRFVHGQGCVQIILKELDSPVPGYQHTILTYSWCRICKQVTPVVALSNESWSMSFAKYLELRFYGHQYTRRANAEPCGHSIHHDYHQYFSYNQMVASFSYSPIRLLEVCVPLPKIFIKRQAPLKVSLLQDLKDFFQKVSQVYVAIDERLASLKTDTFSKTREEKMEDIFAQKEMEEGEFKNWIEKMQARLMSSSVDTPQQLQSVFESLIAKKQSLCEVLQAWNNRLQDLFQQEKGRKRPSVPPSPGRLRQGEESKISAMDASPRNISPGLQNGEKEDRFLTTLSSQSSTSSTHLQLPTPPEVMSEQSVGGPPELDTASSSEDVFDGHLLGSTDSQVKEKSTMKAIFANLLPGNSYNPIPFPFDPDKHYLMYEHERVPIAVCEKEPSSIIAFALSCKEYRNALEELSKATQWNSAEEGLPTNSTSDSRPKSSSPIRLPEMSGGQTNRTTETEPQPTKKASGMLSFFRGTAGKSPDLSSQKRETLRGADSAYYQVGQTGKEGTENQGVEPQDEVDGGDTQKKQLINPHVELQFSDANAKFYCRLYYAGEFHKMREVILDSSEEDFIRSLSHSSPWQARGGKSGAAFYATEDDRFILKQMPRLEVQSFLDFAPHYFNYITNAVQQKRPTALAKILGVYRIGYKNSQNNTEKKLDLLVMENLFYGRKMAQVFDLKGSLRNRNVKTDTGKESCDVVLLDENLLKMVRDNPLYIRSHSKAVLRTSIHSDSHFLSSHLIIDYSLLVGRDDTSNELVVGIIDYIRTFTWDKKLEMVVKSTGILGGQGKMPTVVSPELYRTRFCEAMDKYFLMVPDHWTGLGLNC
concentration | remaining binding
9900 nM | 0.00285 and 0.00278
13.6 nM | 0.815 and 0.813
0.503 nM | 1.05 and 0.98
3330 nM | 0.00633 and 0.008
10000 nM | 0.00271 and 0.00218
0.508 nM | 1.08 and 1.14
367 nM | 0.198 and 0.194
1100 nM | 0.0267 and 0.0293

Series 3 — technique: manual patch clamp
SMILES: Cn1cc(-c2cccc(CN3CCC4(CC3)COc3c4ccc4c3CN([C@H]3CCC(=O)NC3=O)C4=O)c2)cn1
Target: Voltage-gated inwardly rectifying potassium channel KCNH2 (KCNH2, Homo sapiens, UniProt Q12809)
Sequence of UniProt Q12809 (whole entry, looked up): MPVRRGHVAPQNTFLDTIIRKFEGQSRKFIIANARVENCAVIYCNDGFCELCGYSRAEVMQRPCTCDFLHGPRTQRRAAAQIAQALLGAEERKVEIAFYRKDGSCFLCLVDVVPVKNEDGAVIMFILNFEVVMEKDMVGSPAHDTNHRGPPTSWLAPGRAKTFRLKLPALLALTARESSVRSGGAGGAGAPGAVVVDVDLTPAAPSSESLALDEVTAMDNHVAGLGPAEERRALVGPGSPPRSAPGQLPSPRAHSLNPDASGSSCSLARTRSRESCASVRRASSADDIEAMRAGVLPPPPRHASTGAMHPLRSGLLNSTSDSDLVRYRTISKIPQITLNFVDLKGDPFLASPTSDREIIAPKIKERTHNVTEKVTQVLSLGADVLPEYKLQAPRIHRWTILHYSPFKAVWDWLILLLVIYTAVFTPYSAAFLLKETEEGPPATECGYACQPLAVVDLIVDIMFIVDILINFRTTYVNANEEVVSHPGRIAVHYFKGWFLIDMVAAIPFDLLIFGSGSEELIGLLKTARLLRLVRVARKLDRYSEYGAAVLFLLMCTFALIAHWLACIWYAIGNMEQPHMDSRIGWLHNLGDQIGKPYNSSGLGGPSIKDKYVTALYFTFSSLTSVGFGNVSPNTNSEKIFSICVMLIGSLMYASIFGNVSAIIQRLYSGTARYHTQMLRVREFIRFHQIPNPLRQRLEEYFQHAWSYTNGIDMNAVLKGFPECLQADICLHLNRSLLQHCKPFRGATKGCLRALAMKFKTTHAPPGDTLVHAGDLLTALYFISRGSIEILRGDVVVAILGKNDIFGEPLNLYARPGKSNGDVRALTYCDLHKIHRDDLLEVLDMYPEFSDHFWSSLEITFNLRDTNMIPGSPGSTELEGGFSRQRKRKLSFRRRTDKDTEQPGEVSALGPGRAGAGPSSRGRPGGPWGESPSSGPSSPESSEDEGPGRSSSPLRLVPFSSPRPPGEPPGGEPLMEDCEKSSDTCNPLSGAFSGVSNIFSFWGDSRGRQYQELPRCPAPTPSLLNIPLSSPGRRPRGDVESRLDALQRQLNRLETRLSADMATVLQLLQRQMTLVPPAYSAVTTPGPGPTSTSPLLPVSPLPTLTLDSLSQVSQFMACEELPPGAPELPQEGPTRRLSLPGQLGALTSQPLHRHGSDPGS
observed | action | concentration | notes | inhibition
hERG current | – | 9.95 µM | – | 18.9%
potassium current | inhibitor | 32.25 µM | 32.25 | 36.8% and 50%
potassium current | – | 100 µM | cloudy working solution | 65.3% and 73.2%
potassium current | inhibitor | 88.62 µM | mean measured concentration | 69.2%

Series 4 — observed: binding; technique: competition with immobilised ligand; concentration: 1 µM
SMILES: COc1cc(-c2nc3ccc(C(=O)NCCCN4CCN(c5cccc(C)c5C)CC4)cc3n2C2CCC2)cc(OC)c1OC
target | remaining binding
Mitogen-activated protein kinase 10 (MAPK10, Homo sapiens, UniProt P53779) | 83%
Myosin light chain kinase, smooth muscle (MYLK, Homo sapiens, UniProt Q15746) | 75%
Serine/threonine-protein kinase PAK 1 (PAK1, Homo sapiens, UniProt Q13153) | 97%
Dual specificity protein kinase CLK2 (CLK2, Homo sapiens, UniProt P49760) | 96%
Tyrosine-protein kinase ABL1, phosphorylated (ABL1, Homo sapiens, UniProt P00519, E255K) | 62%
Ephrin type-B receptor 6 (EPHB6, Homo sapiens, UniProt O15197) | 77%
Receptor-type tyrosine-protein kinase FLT3 (FLT3, Homo sapiens, UniProt P36888, D835H) | 86%
Serine/threonine-protein kinase 4 (STK4, Homo sapiens, UniProt Q13043) | 79%

Excerpt of the above (series 1):
concentration | luminescence
0.05 µM | 4.28e+06 a.u. and 4.26e+06 a.u. and 3.8e+06 a.u.
50 µM | 57600 a.u. and 55900 a.u. and 46300 a.u.
